Results pooled from the literature.
A part holds a random share of what one study measured.

Series 1 — method: competition protein-binding microarray; form: double-stranded DNA, one strand shown; matrix: in vitro; concentration: 2 µM; added: Cbf1 competitor, 0.05 µM; reading: higher = stronger binding; measurement: fluorescence intensity
Target: Phosphate system positive regulatory protein PHO4, full length, GST-tagged (PHO4, Saccharomyces cerevisiae, UniProt P07270, residues 1-312)
Setting: whole 60-bp probe, lowest competitor level
Target sequence (chain): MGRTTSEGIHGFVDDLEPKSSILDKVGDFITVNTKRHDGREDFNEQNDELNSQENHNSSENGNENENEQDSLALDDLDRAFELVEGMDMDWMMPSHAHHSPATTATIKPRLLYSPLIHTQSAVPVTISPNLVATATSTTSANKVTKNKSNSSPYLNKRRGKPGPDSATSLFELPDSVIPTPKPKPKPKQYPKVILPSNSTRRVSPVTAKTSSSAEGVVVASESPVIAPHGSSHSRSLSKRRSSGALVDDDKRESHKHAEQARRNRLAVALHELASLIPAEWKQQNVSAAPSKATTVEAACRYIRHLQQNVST
CGGGGTTAAGTTTGTGGCGTGGGTGGCTTGCAGCAGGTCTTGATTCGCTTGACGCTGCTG: 6950 a.u.
AGACAAAGTTTGGTGGGCGTGGGACGAAGAATTCAGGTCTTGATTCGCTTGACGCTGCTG: 8200 a.u.
CGGGGTTAAGTTTGTGTCGTGGGTGGCTTGCAGCAGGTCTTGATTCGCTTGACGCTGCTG: 7610 a.u.
TCACTCTATAGCTGTCATGCGTGGATTTTTCCAGCTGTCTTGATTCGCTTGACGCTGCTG: 7230 a.u.
TGCGCAACAACTTGATTGGTGGGTGTATGTCTAGAAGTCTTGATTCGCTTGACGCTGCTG: 4560 a.u.
AAGATCTAGGCCCATCACGCAGGCAGTTACTGAGAAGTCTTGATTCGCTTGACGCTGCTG: 4810 a.u.
ATTGATGATGGTTATCATGCTTGATAATAGACTTAAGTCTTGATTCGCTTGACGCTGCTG: 4590 a.u.
TTGGGGCAGATACTTCGTGTGACAGTGGCCAATTCAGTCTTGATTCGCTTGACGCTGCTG: 4600 a.u.
TGGCAGCGTAACTGGCACGGCCACATCGGTGGGATTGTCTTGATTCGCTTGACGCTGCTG: 4830 a.u.
CCGGGAGTTTTTCCGCACGCTAAAATCAAGACTCAAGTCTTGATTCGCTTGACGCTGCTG: 4920 a.u.
GGGATGGTGATGGTATACGTGGTTACGTCTTTTACAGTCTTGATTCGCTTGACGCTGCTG: 6240 a.u.
TTTATATAAAGGGTACTCGTGCAAACGGACATCGAGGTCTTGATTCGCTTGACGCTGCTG: 9100 a.u.
AAATTACTAAGTTGTATGGTGGGTGACGCCGTATGAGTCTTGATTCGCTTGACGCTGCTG: 3920 a.u.
CATACCCAACCTTGTCACCGCACTTAAGATATTTGTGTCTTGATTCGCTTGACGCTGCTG: 4040 a.u.
CTATTCAAAAGGTTCCACGTTGGCTGTCTACTGACTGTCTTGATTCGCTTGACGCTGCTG: 11900 a.u.
TAACAGCCAAGTACCCACGGGTTTCTCTAGCCTCATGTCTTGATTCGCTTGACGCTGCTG: 10400 a.u.
AAATTACTAAGTTGCCTAGTGGGTGACGCCGTATGAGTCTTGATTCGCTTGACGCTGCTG: 4320 a.u.
CATACCCAACCTTGCTGTGTGGGTGAAGATATTTGTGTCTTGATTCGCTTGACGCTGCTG: 5500 a.u.
CCATATTTTCTTTGGCGTGTGCCAAGATCTTGTTGTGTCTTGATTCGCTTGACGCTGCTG: 7430 a.u.

Series 2 — method: protein-binding microarray; form: double-stranded DNA, one strand shown; matrix: in vitro; concentration: 940 nM top; setting: 60-bp whole probe; added: salmon DNA 0.4 mg/ml; relative to: random background probes; reading: higher = stronger binding; measurement: fitted relative affinity; all sequences stand within: GCCTAGCAC … GTCTTGATTCGCTTGACGCTGCTG
Target: Interferon regulatory factor 5, full length, phosphomimetic (IRF5, Homo sapiens, UniProt Q13568-2, residues 1-514, S451D/S453D/S456D/S462D)
TTAGGTTTCGACACTGGGTCAGTGCTA: 8.54 z-score
TCATCTCGGAGATCTCGAACTGTGCTA: 0.662 z-score
TCATTTCCATTTTCTAAAACTGTGCTA: 1.81 z-score
GACTTTTTAGATATCTTTTTGTGCTAG: 0.399 z-score
GACGTTATCGGGACTGGGGACGTGCTA: 0.0375 z-score
GACGGTTTCCGGACTGGGGACGTGCTA: 0.498 z-score
GACGATCTCAGTTTCGACACGTGCTAG: 4.87 z-score
TTTTTTTTATCAATCATTTTGTGCTAG: 1.22 z-score
TCAACTTTCTATCTCTGACTGTGCTAG: 1.9 z-score
TCATTTTTTTTTGTATTACTGTGCTAG: 1.66 z-score
TTAGGTTTCCTTTACCTTTAGTGCTAG: 2.04 z-score
GACGACCTGAGTTTCGAGACGTGCTAG: 3.47 z-score
GAAGATTTCAGTATCGAGACGTGCTAG: 2.44 z-score
GACGGACTGGAATATCGGGACGTGCTA: 0.0668 z-score
CAAGTTACGGAATTTCCCTCTGTGCTA: 0.0692 z-score
CCAATTCTCTTTTCACTTTCGTGCTAG: 2.9 z-score
AGATGTATGAGCCTCTGTTTGTGCTAG: -0.147 z-score
TTAGGTCTCCTTTTCCTATAGTGCTAG: 0.801 z-score
GACGAACTGGTGTATCGAGACGTGCTA: 0.307 z-score
GGCGGTTTCGGACTGGGGACGTGCTAG: 7.04 z-score
TTCGGTATCGACTTTCGGTTAGTGCTA: 6.81 z-score
TCAGGTATCCTACTGCTTTAGTGCTAG: 0.249 z-score
TTCAGTTTTCCTATGTCATTGTGCTAG: 1.6 z-score
GACGGTTCCGGTCTCGGGACGTGCTAG: 2.75 z-score
GACGGTCTCGGTATCGAGACGTGCTAG: 5.66 z-score

Series 3 — method: protein binding microarray; form: double-stranded DNA, one strand shown; matrix: in vitro; concentration: not given; relative to: not given; reading: higher = stronger binding; measurement: E-score
Target: Histone acetyltransferase KAT6A, both winged helices, GST fusion (KAT6A, Homo sapiens, UniProt Q92794, residues 1-181)
Setting: 8-mer, flanks averaged, mean of 2 arrays, mostly near background
Construct (chain): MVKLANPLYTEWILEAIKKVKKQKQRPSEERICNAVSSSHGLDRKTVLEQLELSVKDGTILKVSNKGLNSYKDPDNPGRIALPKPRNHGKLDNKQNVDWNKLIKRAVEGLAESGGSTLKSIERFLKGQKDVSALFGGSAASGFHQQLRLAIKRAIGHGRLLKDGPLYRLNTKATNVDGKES
ACTGATTG: -0.3
AACGGCTA: 0.229
AGGGCATG: -0.251
AAAGAAAT: -0.26
GCTGCCAA: -0.155
GTGTAGAA: -0.0896
CGCGGGAC: 0.294
GTAAGTTA: -0.0809
CGATGGGC: -0.0419
ACGTCCCT: -0.177
CCTCGTTC: -0.0996
CAGCACTG: -0.15
CCAGGTAA: -0.118
CGCTAGAC: 0.178
CATGTCGG: 0.0334
CCATGACG: 0.0427
GTCTCTAA: -0.18
CCGCAAAG: 0.222
CCATTCCC: -0.105
CATGTGTC: 0.0324
AGGCTTTC: -0.082
GGGTACTA: -0.00061
GTGCAAGA: 0.0142
GTTCCACA: 0.0139
AGAGAGCT: -0.15

Series 4 — method: RNA Bind-n-Seq; form: RNA; matrix: in vitro; concentration: not given; relative to: input RNA pool; reading: higher = stronger binding; measurement: bound/input enrichment
Target: RING finger protein unkempt homolog, zinc fingers 1-6, GST-SBP tag (UNK, Homo sapiens, UniProt Q9C0B0, residues 30-357)
Chain of UniProt Q9C0B0 (30-357, looked up): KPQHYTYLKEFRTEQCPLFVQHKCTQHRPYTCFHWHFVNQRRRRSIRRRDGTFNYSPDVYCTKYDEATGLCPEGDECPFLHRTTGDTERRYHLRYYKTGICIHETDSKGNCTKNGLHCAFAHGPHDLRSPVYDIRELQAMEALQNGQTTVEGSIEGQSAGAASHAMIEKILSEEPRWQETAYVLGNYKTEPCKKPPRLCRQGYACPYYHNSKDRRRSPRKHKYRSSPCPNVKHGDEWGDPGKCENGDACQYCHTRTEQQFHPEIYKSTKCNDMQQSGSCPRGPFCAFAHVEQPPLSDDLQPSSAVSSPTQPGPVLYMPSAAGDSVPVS
Setting: RNA with constant flanks, human-mouse chimeric sites, ends assumed
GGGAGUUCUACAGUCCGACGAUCUGACAAGGGCACUGCAGAGCCAUGCCUUUCCUUGACAUACAGAAAAAGCUGGGCAUCAACAUAGAUCGGCACUUUAUGUUCCUAAGCGCAGAACAGCCCUAUAAGAAGGCUGGUCGAUGCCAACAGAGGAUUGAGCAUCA: 0.121 ratio
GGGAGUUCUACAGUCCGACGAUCGUCAACAGCUGCCUCAACCCCAUCCUCUACGCCUUCCUGGAUGAGAACUUCAAGGCCUGCUUCCGCAAGUUCUGCUGUGCAUCUGCCCUGCACCGGGAGAUGCAGGUGUCUGACCGCGUGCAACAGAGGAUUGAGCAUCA: 0.286 ratio
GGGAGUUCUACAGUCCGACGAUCUGGCGCCUGCGCUCCCCACUCGUGUUUUUAAGUGUAUUUUUAUAAGAUACAUGUAUUUACAAUUGAGCUUUUGUUACAUAAUGCUGAAAACAUCUCUCAAUAUUAUGAAAAUGUUUCAAUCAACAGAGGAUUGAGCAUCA: 0.133 ratio
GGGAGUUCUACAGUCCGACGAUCCAGACUGUGUCAUACUUUUUAGACAUUCACAUCAGACUUACAGAGCACCUGGCCACAUUCUAGGUUUGAAUUAUUUCUCAGCUAUGGAUAUGAUCAAAUGAGAACACUGCUUAACUAAUGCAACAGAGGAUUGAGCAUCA: 0.762 ratio
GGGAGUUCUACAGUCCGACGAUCAUCCCAAUUAUGGACACCGGUGAAAACCCAGAGGUUCCCUUCCCCCGGGACAUGAUCGACUUAGAGGCCAAUUUUGAGAAGAUUGAAAAUGAACUGAAGGAAAUCAACACAAACCAGGAACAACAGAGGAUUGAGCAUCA: 0.23 ratio
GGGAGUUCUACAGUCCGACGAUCUACUACUAUGAUGGUGAUAUUGGCAAUUAUUAUUAUGGCCAGGGUCAUCCCAUGAAGCCUCAUAGAAUCCGGAUGACUCAUAACUUGCUGUUAAAUUAUGGUUUAUACCGAAAAAUGGAACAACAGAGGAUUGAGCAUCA: 0.172 ratio
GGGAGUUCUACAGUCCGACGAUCAACAGAUUUCUCAAGCACAUUCCAAGCGAGAAUGCUGGGGUGAUCAUUGUUGCCCAUAUAUAGUAAUACUGAGCUUUAAUGCUGUUCCAUGUUACAUCUUUCCUUCACUCCAGAAUUGUUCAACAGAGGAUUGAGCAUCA: 0.512 ratio

For quick reference, copied from above (series 3):
CAGCACTG: -0.15
CGCTAGAC: 0.178
AGAGAGCT: -0.15
GTCTCTAA: -0.18
GCTGCCAA: -0.155
AAAGAAAT: -0.26
CATGTGTC: 0.0324
CCATGACG: 0.0427
ACGTCCCT: -0.177
CGCGGGAC: 0.294
